Published values gathered from unrelated publications.
Parts stem from different laboratories: compare values within a part only. Changes are numbered by the printed parent chain.

Series 1
Target: CCNE2, cyclin fold, Cln2 fusion (human)
Method: yeast growth competition, sequencing
Medium: yeast
Setting: strong parent motif
Reference: not given
Direction: higher = stronger binding
Endpoint: normalised enrichment score
Starting sequence: INSM1 docking peptide (human); PKAIRKLHFEDEV; partner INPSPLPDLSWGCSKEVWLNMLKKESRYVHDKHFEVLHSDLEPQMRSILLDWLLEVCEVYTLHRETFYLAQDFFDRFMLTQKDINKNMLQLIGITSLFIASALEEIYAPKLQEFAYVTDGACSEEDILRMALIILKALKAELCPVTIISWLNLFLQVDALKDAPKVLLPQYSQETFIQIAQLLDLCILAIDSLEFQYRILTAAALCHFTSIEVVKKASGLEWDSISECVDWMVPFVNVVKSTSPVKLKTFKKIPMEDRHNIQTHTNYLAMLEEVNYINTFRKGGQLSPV
PKAIRKLSFEDEV [H8S]: 1.36
PKAIWKLHFEDEV [R5W]: -0.0674
PKAIRMLHFEDEV [K6M]: 0.896
PKAIRSLHFEDEV [K6S]: 0.0435
PKAIVKLHFEDEV [R5V]: 0.0195
PKAIRKLHFPDEV [E10P]: 1.75
PKAIRKWHFEDEV [L7W]: 0.15
PKAILKLHFEDEV [R5L]: 0.441
PKAERKLHFEDEV [I4E]: -0.0746
PKAIRKLCFEDEV [H8C]: 2.1
PEAIRKLHFEDEV [K2E]: 0.63
PKAIRKHHFEDEV [L7H]: 0.259
PKAIRKLHFECEV [D11C]: 2.11
PKAIRKLHFLDEV [E10L]: 0.545

Series 2
Target: Max dimerization protein 1, bHLH-zipper, MAX partner unstated (MXD1, Homo sapiens, UniProt Q05195, residues 56-136)
Method: protein-binding microarray
Molecule type: double-stranded DNA, one strand shown
Medium: in vitro
Tested at: not given
Setting: k-mer, scored over probes, only values ≥0.25
Direction: higher = stronger binding
Endpoint: E-score
Target sequence (chain): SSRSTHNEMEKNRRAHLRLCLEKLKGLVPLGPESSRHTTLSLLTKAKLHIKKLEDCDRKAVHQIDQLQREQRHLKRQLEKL
CGTGGTAG: 0.282
GTGGCGCA: 0.283
ACATGTAC: 0.324
CACGTGCC: 0.489
GGTAAGCA: 0.255
GACCACGA: 0.329
ACGTGCCT: 0.377
CCACATGA: 0.417
CGTCCACG: 0.294
ATGGGGAG: 0.322

Series 3
Target: ABI1, truncated, D143A, DHFR fusion (Arabidopsis thaliana)
Method: DHFR PCA, deep sequencing
Medium: yeast
Setting: methotrexate growth selection, single substitutions
Together with: (+)-ABA 200 µM
Reference: wild-type fitted maximum
Direction: higher = stronger binding
Endpoint: relative binding score
Starting sequence: PYL1, truncated, DHFR fusion (Arabidopsis thaliana); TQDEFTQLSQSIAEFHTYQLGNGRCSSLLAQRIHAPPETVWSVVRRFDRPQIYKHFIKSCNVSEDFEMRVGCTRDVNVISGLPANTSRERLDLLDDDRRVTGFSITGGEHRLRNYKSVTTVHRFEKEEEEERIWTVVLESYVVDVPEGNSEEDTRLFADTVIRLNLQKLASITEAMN; partner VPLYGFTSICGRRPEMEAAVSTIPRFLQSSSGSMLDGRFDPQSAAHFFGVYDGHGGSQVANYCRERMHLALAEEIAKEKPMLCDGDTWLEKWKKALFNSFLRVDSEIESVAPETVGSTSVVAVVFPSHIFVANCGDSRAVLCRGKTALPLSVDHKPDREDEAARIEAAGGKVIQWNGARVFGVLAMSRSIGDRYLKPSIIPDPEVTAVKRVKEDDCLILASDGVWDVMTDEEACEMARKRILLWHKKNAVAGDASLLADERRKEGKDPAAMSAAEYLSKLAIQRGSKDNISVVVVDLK
I52Q: 96.5%
Q7D: 97.1%
K168N: 101%
I79Q: 96.8%
F124G: 111%
R111P: 33.6%
K126N: 106%
S80P: 34.6%
L91F: 24.7%
L94N: 39.8%

Further values, each from its own experiment
PhoQ, residues 284 288 289 292 302 303 GLASVI  fold induction (PhoP, residues 12 14 15 18 19 YHFSH (Escherichia coli, UniProt P23836); Sort-seq, measured: YFP reporter; E. coli; PhoQ-PhoP variant library, together with: 10 µM Mg2+; reference: high Mg2+ state, higher = stronger signaling): 1.09

Some of these lines once more (series 1):
PKAIWKLHFEDEV [R5W]: -0.0674
PKAIRMLHFEDEV [K6M]: 0.896
PKAIRSLHFEDEV [K6S]: 0.0435
PKAIVKLHFEDEV [R5V]: 0.0195
